# Results gathered from unrelated publications.
# Lines come from different studies, so protocols differ. Numbers after ± are the reported error.
# Organism: Salmonella typhimurium
Structure (SMILES),assay,test system,setting,scale,measurement,result
CN(N=O)c1ccc(F)cc1,"mutagenicity, Ames plate incorporation",TA100,"50 µg/plate, 3 d, without S9, methanol",,revertant colonies per plate,145 ± 28
Fc1ccc(C2=CCNCC2)cc1,"genotoxicity, SOS/umu test",TA1535/pSK1002,"0.004 mg/mL, 4 h, without S9, full range",,induction factor,1.3
CC(=O)N1CCC(C(=O)N2CCN3C(=O)c4cc(-c5ccccc5)ccc4NC(=O)C3C2)CC1 (stereo not shown),,TA1535,5000 µg/plate,,revertants per plate,19
O=[N+]([O-])c1ccc(N2CCN(CCC(O)c3ccc(F)cc3)CC2)c(C(F)(F)F)c1 (stereo not shown),SOS/umu test,TA1535/pSK1002,"0.002 mg/mL, 4 h, with S9, full range",,survival,88.5%
COc1cccc(-c2n[nH]c(SCc3ccccn3)n2)c1OC,"Ames test, plate incorporation",TA1535,"1.0 mg/plate, with rat liver S9",,revertant colonies per plate,17
Cc1cc(C(=O)NC(C)(C)COc2cccc3c2C(N)=NS(=O)(=O)N3)cc(C)n1,"Ames test, initial",TA100,"150 µg/plate, together with: rat liver S9",baseline: solvent control,revertant ratio,1.2
O=C(O)CCCOc1ccc(F)cc1-c1cc(-c2ccccc2C(F)(F)F)n(-c2ccccc2)n1,Ames test,"TA98, TA100, TA1535, TA1537","78.1 to 5000 µg/plate, without S9",,mutagenicity,negative
O=[N+]([O-])c1ccc(N2CCC(NCCC(O)c3ccc(F)c4ccccc34)CC2)c(C(F)(F)F)c1 (stereo not shown),SOS/umu test,"TA1535/pSK1002, TGA medium","0.000488 mg/mL, 4 h, together with: 10% rat liver S9",,survival,70%
N#C[C@@]1(n2ccc(N)nc2=O)O[C@H](CO)[C@@H](O)[C@H]1O,,TA100,"10 µM, without S9, unit not given",baseline: control,viability,99.1
CNC(=O)c1c(N(C)N=O)ncn1C,plate incorporation,"TA98, water","500 µg/plate, without S9",,revertant colonies per plate,36.3 ± 6

# A few entries again:
Structure (SMILES),assay,test system,setting,scale,measurement,result
COc1cccc(-c2n[nH]c(SCc3ccccn3)n2)c1OC,"Ames test, plate incorporation",TA1535,"1.0 mg/plate, with rat liver S9",,revertant colonies per plate,17
